# Measurements pooled from the literature.
# Each line is one published result; not all experiments were run side by side. “And” joins repeats or separate records; there may be more than shown. ± marks the error that the study gave.
Compound,test,system,conditions,Tmax
CCS(=O)(=O)Nc1ccc(Oc2ccc(F)cc2F)c(-c2cn(C)c(=O)c3[nH]ccc23)c1,,"human, plasma","oral, 2 mg, cycle 1 day 8, median",4 h
CC1(COc2ccc3c(c2)ncn3-c2ccc3cccc(N4CCC(N)CC4)c3n2)COC1,,"human patients, recurrent/progressive HGG or DIPG, serum","oral, 100 mg/m^2, day 1, median",4 h
CO[C@@H]1[C@H](OC(=O)N2CC(CCN3CCOCC3)C2)CC[C@]2(CO2)[C@H]1[C@@]1(C)O[C@@H]1CC=C(C)C,,"humans, plasma","subcutaneous, 0.2 mg twice weekly, fifth dose",0.5 h
CNC(=O)c1cc(Oc2ccc(NC(=O)Nc3ccc(Cl)c(C(F)(F)F)c3)cc2)ccn1,,"human, plasma","oral, 200 mg daily, median, dose level -4, added: carboplatin AUC 2, gemcitabine 500 mg/m2",2.3 h
Cc1cn(C(=O)c2c(-c3c(Cl)cc(Cl)cc3Cl)noc2C(C)(C)F)c2cccc(/C=C/C(=O)O)c12,,human patients,"1000 mg bid, cycle 1 day 1",3.98 h
NC[C@@]1(CC(=O)O)[C@@H]2CC[C@H]3C[C@@H]2[C@@H]1C3,,"human, moderate renal impairment, plasma","oral, 20 mg single dose, median",1.5 h
COc1nnc2ccc(N3CCC(c4ccc(OCCN5CCN(C)C(=O)[C@H]5C)cc4)CC3)nn12,,"human, plasma","oral, 2 mg once daily, multiple dose, monotherapy",0.98 h
CC(C)[C@H](N)C(=O)NCCCS(=O)(=O)O,median,"human, plasma","oral, 256.5 mg twice daily days 2-7, day 7, fed, capsule",1.02 h
CCN(CC)Cc1cc(Nc2ccnc3cc(Cl)ccc23)ccc1O,,"human, both sexes, plasma","oral, dose not given, fixed-dose combination",0.83 h
Cn1cc(-c2ccc(S(=O)(=O)[C@@H]3C[C@@H](C(=O)NC4(C#N)CC4)N(C(=O)C4(C(F)(F)F)CC4)C3)c(C(F)(F)F)c2)cn1,noncompartmental analysis,"human, plasma","oral, 100 mg, day 1, with food, median",5 h
Cc1ncnc2c1ccn2[C@@H]1C[C@H](Oc2cc(C(F)F)c(F)c3c2CNCC3)[C@@H](O)[C@H]1O,,"human, plasma","6 mg once daily, multiple dose, median",1 h
C#C[C@]1(COP(=O)(O)O)O[C@@H](n2cnc3c(N)nc(F)nc32)C[C@@H]1O,measured: islatravir triphosphate,"human, PBMC","oral, 5 mg single dose",6 h
CC(C)n1nc(-c2ccc3oc(N)nc3c2)c2c(N)ncnc21,,"human patients, plasma","oral, 3 mg once daily, cycle 1 day 1, dose expansion",0.5 h
Cc1cc(-c2nnc(N)nc2-c2ccc(F)cc2)cc(Cl)n1,,"human patients, plasma","oral, 75 mg nanosuspension once daily, multiple doses, median",0.5 h
Cc1cc(C)c(CNC(=O)c2cc(Cl)c3c(c2C)O[C@@](C)([C@H]2CC[C@H](N(C)C)CC2)O3)c(=O)[nH]1,median,"healthy male humans, plasma","oral, 25 mg, day 1, alone, fluconazole group",3 h
Cn1ncnc1[C@H]1c2n[nH]c(=O)c3cc(F)cc(c23)N[C@@H]1c1ccc(F)cc1,,"human patients, plasma","oral, 600 µg/m2 twice daily day 1, day 5, dose level DL4, median, added: temozolomide 30 mg/m2 daily days 2-6",1 h
CC(=O)O.NC(=O)c1cnc(N[C@@H]2CCCC[C@@H]2N)nc1Nc1cccc(-n2nccn2)c1,,"human, plasma","oral, 33 mg once daily",2 h
Cc1cc(-c2nccc3c2ccn3CC(=O)Nc2ccc(-c3cnccn3)cn2)ccn1,,"human, plasma","oral, 20 mg single dose, median",1 h
CNC(=O)c1ccc(-c2cnc3ncc(Cc4ccc5ncccc5c4)n3n2)cc1F,,human moderate hepatic impairment NCI,"oral, 200 mg single dose, median",1 h
CN(CC#N)C(=O)C[C@H](Nc1nc2ccccc2[nH]1)c1cccc(C(F)(F)F)c1,,human,"intravenous infusion, 1.5 mg/kg, 1 mg/mL formulation",0.49 ± 0.01 h
N#Cc1cc(NC(=O)[C@H]2c3ccccc3C(=O)N(CC(F)(F)F)[C@@H]2c2cccnc2)ccc1F,,"human, plasma","oral, 150 mg, median",1.5 h
COc1ccc2c3c1O[C@H]1C[C@@H](OC(=O)c4ccccc4)C=C[C@@]31CCN(C)C2,,"human, plasma","intranasal, 11 mg single dose",0.25 h and 0.5 h
NC(=O)c1[nH]cnc1N,,"human patients, plasma","IV infusion over 1 h, 1000 mg/m^2 DTIC, cycle 2 day 1, co-administered with co-drug",1.33 h
COc1cc([C@@H]2Oc3ccc([C@H]4Oc5cc(O)cc(O)c5C(=O)[C@@H]4O)cc3O[C@H]2CO)ccc1O,,"OATP1B1/1B3 humanized mice, plasma","oral gavage, 500 mg/kg silymarin, median",0.25 h
COc1ccc([C@@H](O)c2cc(-c3ncnc4cc(N5CCOCC5)ccc34)c(F)cc2Cl)nn1,,human,"oral, 250 mg once daily, single dose, median",1.47 h
N#CCC1CCN(c2nc(Nc3ccc(N4CCC(O)CC4)cc3)c3c(=O)[nH]ncc3n2)CC1,LC-MS/MS,"human, plasma","oral, 80 mg once daily, day 15, median",3 h
CCn1cc(C(=O)N2CCOCC2)c(=O)c2cc(NC3Cc4ccccc4C3)cnc21,,"human, fasted, plasma","oral, 600 mg single dose, tablet, median",0.75 h
O=C(c1cc(Cc2n[nH]c(=O)c3ccccc23)ccc1F)N1CCN(C(=O)C2CC2)CC1,,"human, female, plasma","oral, 200 mg twice daily, added: abemaciclib",2 h
CN(C)C(=O)c1cc2cnc(Nc3ccc(N4CCNCC4)cn3)nc2n1C1CCCC1,,"human, mild renal impairment, plasma","oral, 400 mg, median",2 h
CN(C)C(=O)c1cc2cnc(Nc3ccc(N4CCNCC4)cn3)nc2n1C1CCCC1,,"human, expansion cohort, plasma","oral, 800 mg, day 8, added: gemcitabine 1000 mg/m^2",3.5 ± 1.6 h
Cc1cccc(F)c1N1CCC(N2Cc3cn(CC(C)(F)F)nc3N(Cc3ccccc3C(F)(F)F)C2=O)CC1,,"human healthy subjects, plasma","oral, 100 mg, single dose, fed, median",2 h
Cc1nc(-c2ccc(OCC(C)C)c(C#N)c2)sc1C(=O)O,,"human, plasma","oral, 40 mg once daily, added: verinurad 5 mg",3 h
CCN1CCN(Cc2ccc(Nc3ncc(F)c(-c4cc(F)c5nc6n(c5c4)[C@H](C)CCC6)n3)nc2)CC1,,"human, plasma","300 mg multiple dosing, median",1.98 h
COc1ncc(-c2nc3c(n2C(C)C)[C@H](c2ccc(Cl)cc2)N(c2cc(Cl)cn(C)c2=O)C3=O)c(OC)n1,"LC-MS/MS, noncompartmental","human, plasma","oral, 120 mg, C1D1, high-dose, median",2.1 h
CCN1[C@@H](C(=O)NC23CCC(C(=O)O)(CC2)CC3)[C@H](c2cccc(Cl)c2F)[C@]2(C(=O)Nc3cc(Cl)ccc32)C12CCCCC2,noncompartmental analysis,"human, advanced solid tumours, plasma","oral, 100 to 200 mg",4 to 8 h
CCCCCCCOc1ccc(CCC(N)(CO)CO)cc1C(F)(F)F.Cl,,"healthy human males, plasma","oral, 0.75 mg, day 1, median",12 h
N[C@](CO)(CCc1ccc(Sc2cccc(OCc3ccccc3)c2)cc1Cl)COP(=O)(O)O,,"human, fed, blood","3 mg, median, added: itraconazole 200 mg once daily",24 h
C#C[C@]1(COP(=O)(O)OP(=O)(O)O)O[C@@H](n2cnc3c(N)nc(F)nc32)C[C@@H]1O,measured: islatravir triphosphate,"human, PBMC","oral, 100 mg single dose",12 h
CCOc1c([C@H](C)n2nc(C)c3c(N)ncnc32)cc(Cl)c(F)c1[C@@H]1CNC(=O)C1,,"human patients, Hodgkin lymphoma, plasma","oral, 30 mg, day 15, monotherapy, median",0.8 h
C#Cc1cccc(Nc2ncnc3cc(OCCOC)c(OCCOC)cc23)c1,,"human, plasma","oral, 50 mg daily, day 7",2.3 h
CC(F)(F)c1cc(F)ccc1-c1sc2cc(O)ccc2c1Oc1ccc(/C=C/C(=O)O)cc1,,"human, serum","oral, 600 mg once daily, cycle 1 day 28, fasted, median",2.1 h
CC(C)(C(=O)NC1C2CC3CC1CC(C(N)=O)(C3)C2)N1CCN(c2ccc(C(F)(F)F)cn2)CC1 (centres unmarked),measured: metabolite,"human, CSF","oral, 50 mg once daily, 5 days, median",3.3 h
NS(=O)(=O)OC[C@@H]1C[C@@H](n2ccc3c(N[C@H]4CCc5ccccc54)ncnc32)C[C@@H]1O,"LC-MS/MS, non-compartmental","human, plasma","intravenous, all dose levels, cycle 1 day 1, median",1.05 h
CC(C)c1nc(N(C)S(C)(=O)=O)nc(-c2ccc(F)cc2)c1/C=C/[C@@H](O)C[C@@H](O)CC(=O)O,,"healthy human subjects, plasma","oral, 10 mg, median, added: none",3.01 h
CC1=C(c2cccc(O)c2)[C@H](c2ccc(OCCN3CC(CF)C3)cc2)Oc2ccc(O)cc21,,"human, plasma","oral, 1400 mg single dose, median",3 h
C[C@H](Oc1ccc(Br)cc1-c1ccon1)C(=O)O,"LC-MS/MS, non-compartmental","human, plasma","400 mg once daily, day 1, multiple ascending dose, median",2.05 h
COc1cc(-c2cnc3cc(OCCN4CCOCC4)ccn23)cc2c1C(=O)N(CC(F)(F)F)CC2,LC-MS,"human, plasma","oral, 350 mg, -2 h on day 9, added: sulfasalazine 1000 mg",0.5 h
C#C[C@]1(CO)O[C@@H](n2cnc3c(N)nc(F)nc32)C[C@@H]1O,,"human, plasma","oral, 5 mg single dose",0.5 h
C[C@@H](Nc1cc(F)cc(F)c1)c1cc(C(=O)N(C)C)cc2c(=O)cc(N3CCOCC3)oc12,measured: M1 metabolite,human,"oral, 120 mg, single dose day 1, 2:5 BID regimen",3.65 h
Cc1noc(C)c1-c1cc(C(O)(c2ccccn2)c2ccccn2)c2nc(C3CC3)[nH]c2c1,,"human patients, plasma","oral, 6 mg, cycle 1 day 8, monotherapy",0.8 h
C[C@H](NC(=O)/C(C#N)=C/c1cccc(Br)n1)c1ccccc1,LC-MS/MS,"human, plasma","oral, 2 mg/kg, cycle 1 day 1",0.5 h
CO[C@H]1C[C@@H]2CC[C@@H](C)[C@@](O)(O2)C(=O)C(=O)N2CCCC[C@H]2C(=O)O[C@H]([C@H](C)C[C@@H]2CC[C@@H](OC(=O)NCCOCCOCCOCCOCCOCCOCCOCCOCCC(=O)N3CCc4cc(Cn5nc(-c6ccc7oc(N)nc7c6)c6c(N)ncnc65)ccc4C3)[C@H](OC)C2)C[C@@H](O)[C@H](C)/C=C(\C)[C@@H](O)[C@@H](OC)C(=O)[C@H](C)C[C@H](C)/C=C/C=C/C=C/1C,,"human patients, plasma","intravenous, 10 mg, cycle 1 day 15, 2 h infusion",1 h
CC(C)NC(=O)COc1cccc(-c2nc(Nc3ccc4[nH]ncc4c3)c3ccccc3n2)c1,,"human male, plasma","oral, 200 mg once daily, day 13, fed, median, added: rosuvastatin",2 h
COc1c(OCCCN2CCOCC2)ccc2c1N=C(NC(=O)c1cnc(N)nc1)N1CCN=C21,,"human, plasma","intravenous, 0.6 mg/kg, cycle 1 day 1, median, added: gemcitabine",1.03 h
CC(C)(C)OC[C@@H]1C(=O)NCCN1C(=O)C[C@H](N)Cc1cc(F)c(F)cc1F,,"human, plasma","oral, steady state, EP treatment",1.5 h
Cn1cncc1[C@@](N)(c1ccc(Cl)cc1)c1ccc2c(c1)c(-c1cccc(Cl)c1)cc(=O)n2C,,"human, plasma","oral, 200 mg/m^2, median, first cycle dose",3 h

# Some of these lines once more:
Compound,test,system,conditions,Tmax
CCn1cc(C(=O)N2CCOCC2)c(=O)c2cc(NC3Cc4ccccc4C3)cnc21,,"human, fasted, plasma","oral, 600 mg single dose, tablet, median",0.75 h
CNC(=O)c1cc(Oc2ccc(NC(=O)Nc3ccc(Cl)c(C(F)(F)F)c3)cc2)ccn1,,"human, plasma","oral, 200 mg daily, median, dose level -4, added: carboplatin AUC 2, gemcitabine 500 mg/m2",2.3 h
N[C@](CO)(CCc1ccc(Sc2cccc(OCc3ccccc3)c2)cc1Cl)COP(=O)(O)O,,"human, fed, blood","3 mg, median, added: itraconazole 200 mg once daily",24 h
CNC(=O)c1ccc(-c2cnc3ncc(Cc4ccc5ncccc5c4)n3n2)cc1F,,human moderate hepatic impairment NCI,"oral, 200 mg single dose, median",1 h
CO[C@@H]1[C@H](OC(=O)N2CC(CCN3CCOCC3)C2)CC[C@]2(CO2)[C@H]1[C@@]1(C)O[C@@H]1CC=C(C)C,,"humans, plasma","subcutaneous, 0.2 mg twice weekly, fifth dose",0.5 h
CCN1[C@@H](C(=O)NC23CCC(C(=O)O)(CC2)CC3)[C@H](c2cccc(Cl)c2F)[C@]2(C(=O)Nc3cc(Cl)ccc32)C12CCCCC2,noncompartmental analysis,"human, advanced solid tumours, plasma","oral, 100 to 200 mg",4 to 8 h
COc1ccc([C@@H](O)c2cc(-c3ncnc4cc(N5CCOCC5)ccc34)c(F)cc2Cl)nn1,,human,"oral, 250 mg once daily, single dose, median",1.47 h
